Results from different studies.
Compare with care: the assays were run in different laboratories. Several values in a cell are separate wells, animals, samples, runs or records. ± marks the error that the study gave.
MAD2L2 R124A: MAD2L2 R124A (Homo sapiens, UniProt Q9UI95)
HCRTR2 del254-292/I293E/K294R/L160H/M161K/Q254E: Orexin receptor type 2 (HCRTR2, Homo sapiens, UniProt O43614, del254-292/I293E/K294R/L160H/M161K/Q254E)
Sequence of UniProt O43614 (whole entry, unmodified, looked up): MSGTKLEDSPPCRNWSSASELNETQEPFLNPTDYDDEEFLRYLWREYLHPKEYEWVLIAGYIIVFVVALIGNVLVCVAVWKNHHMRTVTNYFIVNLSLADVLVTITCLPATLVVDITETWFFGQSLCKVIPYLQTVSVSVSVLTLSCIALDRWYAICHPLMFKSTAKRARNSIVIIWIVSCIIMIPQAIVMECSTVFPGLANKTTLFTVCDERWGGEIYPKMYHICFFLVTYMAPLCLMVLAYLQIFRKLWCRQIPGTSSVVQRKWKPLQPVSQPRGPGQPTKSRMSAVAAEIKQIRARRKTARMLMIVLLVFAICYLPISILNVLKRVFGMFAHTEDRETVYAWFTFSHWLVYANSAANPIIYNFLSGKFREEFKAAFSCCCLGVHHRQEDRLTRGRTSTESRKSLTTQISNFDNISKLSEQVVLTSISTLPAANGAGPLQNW
MAVS: MAVS 1-513 (Homo sapiens, UniProt Q7Z434)
Sequence of UniProt Q7Z434 (whole entry, unmodified, looked up): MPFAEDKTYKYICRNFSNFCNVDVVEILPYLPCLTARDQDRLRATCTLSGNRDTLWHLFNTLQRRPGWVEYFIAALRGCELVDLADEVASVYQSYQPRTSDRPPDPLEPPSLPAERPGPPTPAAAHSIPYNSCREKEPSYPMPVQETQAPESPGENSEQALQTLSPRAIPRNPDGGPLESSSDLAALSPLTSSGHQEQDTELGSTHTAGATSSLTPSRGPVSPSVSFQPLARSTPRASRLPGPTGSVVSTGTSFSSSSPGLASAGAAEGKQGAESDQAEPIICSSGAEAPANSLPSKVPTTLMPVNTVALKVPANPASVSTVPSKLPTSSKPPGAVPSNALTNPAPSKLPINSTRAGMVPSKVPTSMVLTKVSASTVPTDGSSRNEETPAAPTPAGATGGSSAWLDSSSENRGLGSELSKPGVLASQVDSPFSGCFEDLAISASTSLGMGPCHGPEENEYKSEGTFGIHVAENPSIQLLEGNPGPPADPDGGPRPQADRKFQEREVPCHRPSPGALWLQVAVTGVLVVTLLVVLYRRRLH
T1: NR1I2 ligand-binding domain, GST fusion (Homo sapiens); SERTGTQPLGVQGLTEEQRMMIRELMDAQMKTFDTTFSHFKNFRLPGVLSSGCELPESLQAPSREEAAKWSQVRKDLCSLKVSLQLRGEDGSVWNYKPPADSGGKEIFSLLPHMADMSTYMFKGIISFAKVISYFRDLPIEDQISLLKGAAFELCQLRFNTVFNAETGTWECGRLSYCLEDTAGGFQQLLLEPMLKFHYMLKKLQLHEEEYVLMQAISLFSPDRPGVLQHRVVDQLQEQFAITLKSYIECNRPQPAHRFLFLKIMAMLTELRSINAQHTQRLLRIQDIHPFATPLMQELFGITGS
B1: Mena EVH1 1-113 (Homo sapiens, UniProt Q8N8S7); chain MSEQSICQARAAVMVYDDANKKWVPAGGSTGFSRVHIYHHTGNNTFRVVGRKIQDHQVVINCAIPKGLKYNQATQTFHQWRDARQVYGLNFGSKEDANVFASAMMHALEVLNS
B2: TNKS2 ARC4 domain (Homo sapiens); fluorescent label; chain GNSEADRQLLEAAKAGDVETVKKLCTVQSVNCRDIEGRQSTPLHFAAGYNRVSVVEYLLQHGADVHAKDKGGLVPLHNACSYGHYEVAELLVKHGAVVNVADLWKFTPLHEAAAKGKYEICKLLLQHGADPTKKNRDGNTPLDLVKDGDTDIQDLLRGDAAL
B3: FAM222A (Homo sapiens, UniProt Q5U5X8); sequence looked up; chain MLACLQRTQNAPGQHLACPSKSLELRKCEAVASAMHSSRYPSPAELDAYAEKVANSPLSIKIFPTNIRVPQHKHLSRTVNGYDTSGQRYSPYPQHTAGYQGLLAIVKAAVSSSSTAAPAGPAKSVLKSAEGKRTKLSPAAVQVGIAPYPVPSTLGPLAYPKPPEAPAPPPGLPAAATAASVIPLPGRGLPLPPSNLPSIHSLLYQLNQQCQAPGAAPPACQGMAIPHPSPAKHGPVPSFPSMAYSAAAGLPDCRKGTELGQGATQALTLAGAAKPAGYADSGLDYLLWPQKPPPPPPQPLRAYSGSTVASKSPEACGGRAYERASGSPLNCGVGLPTSFTVGQYFAAPWNSVLVTPTSDCYNPAAAVVVTELGPGAARELAGPPADALSGLPSKSVCNTSVLSSSLQSLEYLINDIRPPCIKEQMLGKGYETVAVPRLLDHQHAHIRLPVYR
B4: vraS intracellular domain D242G (Staphylococcus aureus, UniProt Q99SZ7); sequence looked up; chain GSVLAYKINQQNDWIKTQIERSMEGETVGINDQNIEIYSETLDLYHTLVPLNQELHKLRLKTQNLTNENYNINDVKVKKIIEDERQRLARELHDSVSQQLFAASMMLSAIKETKLEPPLDQQIPILEKMVQDSQLEMRALLLHLRPLGLKDKSLGEGIKDLVIDLQKKVPMKVVHEIQGFKVPKGIEDHLFRITQEAISNTLRHSNGTKVTVELFNKDDYLLLRIQDNGKGFNVDEKLEQSYGLKNMRERALEIGATFHIVSLPDSGTRIEVKAPLNKEDSYDD
B5: FAM222A 151-452 (Homo sapiens, UniProt Q5U5X8); sequence looked up; chain PSTLGPLAYPKPPEAPAPPPGLPAAATAASVIPLPGRGLPLPPSNLPSIHSLLYQLNQQCQAPGAAPPACQGMAIPHPSPAKHGPVPSFPSMAYSAAAGLPDCRKGTELGQGATQALTLAGAAKPAGYADSGLDYLLWPQKPPPPPPQPLRAYSGSTVASKSPEACGGRAYERASGSPLNCGVGLPTSFTVGQYFAAPWNSVLVTPTSDCYNPAAAVVVTELGPGAARELAGPPADALSGLPSKSVCNTSVLSSSLQSLEYLINDIRPPCIKEQMLGKGYETVAVPRLLDHQHAHIRLPVYR
Sequence of UniProt Q03405 (whole entry, looked up): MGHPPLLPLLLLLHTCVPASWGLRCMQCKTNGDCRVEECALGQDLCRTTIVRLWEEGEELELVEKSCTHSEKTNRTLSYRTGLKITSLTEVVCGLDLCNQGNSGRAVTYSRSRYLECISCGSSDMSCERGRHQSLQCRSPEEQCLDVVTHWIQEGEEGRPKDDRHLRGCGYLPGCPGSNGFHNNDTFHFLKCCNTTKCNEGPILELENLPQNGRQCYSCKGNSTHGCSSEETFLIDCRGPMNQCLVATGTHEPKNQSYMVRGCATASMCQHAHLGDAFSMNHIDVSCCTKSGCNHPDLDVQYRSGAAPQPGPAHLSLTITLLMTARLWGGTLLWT
Sequence of UniProt P05164 (whole entry, unmodified, looked up): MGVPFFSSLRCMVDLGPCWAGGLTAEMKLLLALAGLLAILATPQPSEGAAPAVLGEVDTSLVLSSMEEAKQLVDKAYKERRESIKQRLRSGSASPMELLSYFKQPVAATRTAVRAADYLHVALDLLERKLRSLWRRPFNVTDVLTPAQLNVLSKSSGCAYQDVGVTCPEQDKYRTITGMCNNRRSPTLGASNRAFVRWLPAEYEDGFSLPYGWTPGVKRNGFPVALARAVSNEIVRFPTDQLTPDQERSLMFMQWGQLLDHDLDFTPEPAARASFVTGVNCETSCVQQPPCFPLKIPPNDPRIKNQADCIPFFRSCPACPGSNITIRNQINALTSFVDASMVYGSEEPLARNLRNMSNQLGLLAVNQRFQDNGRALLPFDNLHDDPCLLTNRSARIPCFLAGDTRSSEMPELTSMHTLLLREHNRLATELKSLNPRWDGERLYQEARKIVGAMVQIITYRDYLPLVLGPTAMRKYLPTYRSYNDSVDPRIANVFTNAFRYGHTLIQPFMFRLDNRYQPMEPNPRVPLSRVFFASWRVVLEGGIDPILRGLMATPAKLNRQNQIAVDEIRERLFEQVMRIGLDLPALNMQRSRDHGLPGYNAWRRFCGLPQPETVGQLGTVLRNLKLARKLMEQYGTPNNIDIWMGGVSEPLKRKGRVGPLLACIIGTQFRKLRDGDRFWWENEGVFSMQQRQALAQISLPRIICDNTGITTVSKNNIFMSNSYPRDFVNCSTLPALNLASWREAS
Sequence of UniProt P08603 (whole entry, looked up): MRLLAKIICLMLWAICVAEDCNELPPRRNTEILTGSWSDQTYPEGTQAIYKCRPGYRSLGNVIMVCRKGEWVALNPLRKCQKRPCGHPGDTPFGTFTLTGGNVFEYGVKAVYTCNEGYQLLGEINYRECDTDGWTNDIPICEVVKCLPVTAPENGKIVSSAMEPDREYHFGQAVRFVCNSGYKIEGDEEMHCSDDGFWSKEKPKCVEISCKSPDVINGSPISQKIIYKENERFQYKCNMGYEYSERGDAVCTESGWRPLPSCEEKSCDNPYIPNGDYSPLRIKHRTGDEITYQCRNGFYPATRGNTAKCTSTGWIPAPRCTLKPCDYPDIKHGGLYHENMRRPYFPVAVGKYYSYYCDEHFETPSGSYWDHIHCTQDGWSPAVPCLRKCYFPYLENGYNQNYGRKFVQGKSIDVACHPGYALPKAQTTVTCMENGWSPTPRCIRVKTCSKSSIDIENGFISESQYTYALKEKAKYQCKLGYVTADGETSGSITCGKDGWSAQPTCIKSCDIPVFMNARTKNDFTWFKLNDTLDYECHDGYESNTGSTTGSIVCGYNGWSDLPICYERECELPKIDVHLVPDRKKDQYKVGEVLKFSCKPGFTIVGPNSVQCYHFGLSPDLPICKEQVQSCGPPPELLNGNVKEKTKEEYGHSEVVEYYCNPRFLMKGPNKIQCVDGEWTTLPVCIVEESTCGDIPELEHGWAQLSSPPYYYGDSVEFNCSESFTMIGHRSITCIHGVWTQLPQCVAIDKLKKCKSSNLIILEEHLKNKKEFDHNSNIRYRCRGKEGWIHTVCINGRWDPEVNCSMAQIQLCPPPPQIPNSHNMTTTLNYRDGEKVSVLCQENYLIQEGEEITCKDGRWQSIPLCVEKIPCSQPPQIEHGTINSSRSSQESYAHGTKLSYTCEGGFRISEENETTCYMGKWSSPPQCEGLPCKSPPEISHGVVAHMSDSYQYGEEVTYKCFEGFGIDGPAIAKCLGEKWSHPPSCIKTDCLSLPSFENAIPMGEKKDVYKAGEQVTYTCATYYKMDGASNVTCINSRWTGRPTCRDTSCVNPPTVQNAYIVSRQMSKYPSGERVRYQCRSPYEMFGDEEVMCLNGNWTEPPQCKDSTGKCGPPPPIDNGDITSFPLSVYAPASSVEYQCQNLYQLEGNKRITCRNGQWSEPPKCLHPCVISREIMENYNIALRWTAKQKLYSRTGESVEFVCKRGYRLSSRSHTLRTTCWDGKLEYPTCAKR
Sequence of UniProt O94885 (whole entry, looked up): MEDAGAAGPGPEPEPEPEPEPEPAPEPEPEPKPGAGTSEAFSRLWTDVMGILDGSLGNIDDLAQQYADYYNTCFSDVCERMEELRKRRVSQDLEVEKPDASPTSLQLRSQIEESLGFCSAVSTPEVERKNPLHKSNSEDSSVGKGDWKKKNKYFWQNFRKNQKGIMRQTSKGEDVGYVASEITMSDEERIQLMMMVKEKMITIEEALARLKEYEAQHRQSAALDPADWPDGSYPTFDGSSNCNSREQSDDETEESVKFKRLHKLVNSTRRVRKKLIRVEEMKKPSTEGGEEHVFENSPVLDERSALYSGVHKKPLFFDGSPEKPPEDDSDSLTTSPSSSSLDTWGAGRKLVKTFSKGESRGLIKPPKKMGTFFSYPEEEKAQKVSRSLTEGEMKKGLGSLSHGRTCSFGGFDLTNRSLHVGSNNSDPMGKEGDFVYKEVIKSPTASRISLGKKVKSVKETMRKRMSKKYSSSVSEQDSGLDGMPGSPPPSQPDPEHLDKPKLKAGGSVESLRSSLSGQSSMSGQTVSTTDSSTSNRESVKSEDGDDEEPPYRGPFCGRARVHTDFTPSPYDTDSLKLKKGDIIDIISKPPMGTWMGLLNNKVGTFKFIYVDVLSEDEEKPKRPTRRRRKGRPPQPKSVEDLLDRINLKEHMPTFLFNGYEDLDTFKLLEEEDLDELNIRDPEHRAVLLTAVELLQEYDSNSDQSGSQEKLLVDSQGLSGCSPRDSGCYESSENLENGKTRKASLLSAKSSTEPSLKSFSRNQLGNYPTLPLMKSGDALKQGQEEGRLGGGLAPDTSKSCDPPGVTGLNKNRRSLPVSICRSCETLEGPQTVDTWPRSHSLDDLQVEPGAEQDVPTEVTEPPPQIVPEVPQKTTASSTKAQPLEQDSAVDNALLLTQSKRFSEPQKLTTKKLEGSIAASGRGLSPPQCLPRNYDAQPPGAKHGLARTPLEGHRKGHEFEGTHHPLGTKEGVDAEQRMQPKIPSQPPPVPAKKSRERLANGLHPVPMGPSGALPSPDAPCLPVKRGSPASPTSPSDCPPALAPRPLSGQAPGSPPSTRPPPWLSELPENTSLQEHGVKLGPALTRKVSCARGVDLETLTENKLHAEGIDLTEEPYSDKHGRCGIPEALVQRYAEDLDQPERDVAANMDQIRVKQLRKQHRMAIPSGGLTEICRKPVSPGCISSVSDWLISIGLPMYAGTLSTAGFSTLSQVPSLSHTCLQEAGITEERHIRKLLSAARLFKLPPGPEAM

PRTANILKPLMSPPSREEIMATLLDHD (REV3L RBM1, 1872-1898 (Homo sapiens))  IC50 (MAD2L2 R124A; competition with FAM-REV3 peptide, competitor, fluorescence polarisation; peptide): 3.4 ± 0.4 µM
heparin sodium  drug-related abnormal liver function (healthy Chinese adult volunteers; continuous intravenous infusion, 8 IU/kg/h, 5 days): 75%
nonaarginine  kon (PorA peptide pore; peptide binding, planar bilayer single-channel recording; 0.5 µM, pH 7.4, +35 mV, trans side, 150 mM KCl): 3.84e+07 ± 4e+06 M⁻¹ s⁻¹
PRTANILKPLMSAPSREEIMATLLDHD (REV3L RBM1, 1872-1898 P1884A (Homo sapiens))  IC50 (MAD2L2 R124A; competition with FAM-REV3 peptide, competitor, fluorescence polarisation; peptide): 8 ± 0.4 µM
CPSSHSSLTERHKILHRLLQEGSPS (NCOA1 676-700 peptide; N-terminal FAM, PEG5 linker, C-terminal amide)  Kd (T1, NR1I2 ligand-binding domain, GST fusion (Homo sapiens); TR-FRET; peptide): 0.115 µM
B1 (Mena EVH1 1-113)  Kd (ActA, N-terminal 5-TAMRA (Listeria monocytogenes); fluorescence polarization): 15.3 µM
spn N-terminal deletion (Staphylococcus aureus)  Kd (MPO mature, native (Homo sapiens, UniProt P05164); SPR): 0.0489 µM
aspterric acid  inhibition (root length; Arabidopsis thaliana Col-0 seeds; 12.5 µg/mL): 99.2%
CFH mature (Homo sapiens, UniProt P08603)  binding (C3b (human, UniProt P01024); SPR): binds
PRTANILKPLMSPPSREEIMATLLDHD (REV3L RBM1, 1872-1898 (Homo sapiens); N-terminal FAM label)  binding (MAD2L2 R124A; SEC; peptide; with: FAM-REV3 peptide): binds
orexin-B  maximal ΔF/F0 (HCRTR2 del254-292/I293E/K294R/L160H/M161K/Q254E; sensor fluorescence, fluorescence imaging; HEK293T; 10 µM, with: OXB 10 µM; baseline: baseline): 1370% and 651% and 975% and 734% and 900% and 967%
B2 (TNKS2 ARC4 domain)  Kd (SASH1 396-564 (Homo sapiens, UniProt O94885); MST): 1.7 ± 0.4 µM
B3 (FAM222A)  binding (MAVS; pull-down): binds
PLAUR (Homo sapiens, UniProt Q03405)  Kd (F12 zymogen, FITC label (Homo sapiens); MST; with: Zn2+): 0.087 to 0.1 µM
insulin human  fold change (item: PDK1 mRNA; uninfected mouse, brain; i.p., dose not given; baseline: PBS): 0.392
neuropeptide FF  ΔF/F0 (HCRTR2 del254-292/I293E/K294R/L160H/M161K/Q254E; sensor fluorescence, fluorescence imaging; HEK293T; concentration not given, unit not given; baseline: baseline): -1.1 and -2.88 and -3.06 and 2.32 and -2.12
PCKCAPSRQLVQVWLQAKE (REV3L RBM2, 1996-2014 (Homo sapiens))  IC50 (MAD2L2 R124A; competition with FAM-REV3 peptide, competitor, fluorescence polarisation; peptide): 8.9 ± 0.3 µM
B4  affinity loss (vraR (Staphylococcus aureus, UniProt Q7A2Q1); SPR; baseline: wild type, higher = weaker binding): 17 fold
B5 (FAM222A 151-452)  binding (MAVS; pull-down): binds

A few entries again:
B4  affinity loss (vraR (Staphylococcus aureus, UniProt Q7A2Q1); SPR; baseline: wild type, higher = weaker binding): 17 fold
B5 (FAM222A 151-452)  binding (MAVS; pull-down): binds
